Assay results of several laboratories.
Lines come from different studies, so protocols differ.
Cell line: UO-31

COc1cc(CNC(=O)C[C@H](C)CCC=C(C)C)ccc1OCc1cn(-c2ccc(Cl)cc2Cl)nn1  growth percent (SRB; 10 µM, 48 h): 60.5%
CC(=C(c1ccc(O)cc1)c1ccc(Cl)cc1)c1ccc(Cl)cc1  GI50 (cell growth or viability): 0.65 µM
O=C([O][Ti+2][O]C(=O)c1ccc([P+]([Au-][Cl])(c2ccccc2)c2ccccc2)cc1)c1ccc([P+]([Au-][Cl])(c2ccccc2)c2ccccc2)cc1.c1cc[cH-]c1.c1cc[cH-]c1  IC50 (cell viability, XTT; 24 h): 6.8 µM
CC/C=C\C/C=C\C/C=C\C/C=C\C/C=C\C/C=C\CCC(=O)Nc1ccn(C2OC(CO)C(O)C2(F)F)c(=O)n1 (centres unmarked)  TGI (NCI60 screen): 12 µM
O=C(O)c1ccc([P+]([Au-][Cl])(c2ccccc2)c2ccccc2)cc1  IC50 (cell viability, XTT; 24 h): 38.3 µM
COc1cc(CNC(=O)C[C@H](C)CCC=C(C)C)ccc1OCc1cn(-c2ccc(Br)cc2)nn1  growth percent (SRB; 10 µM, 48 h): 62.9%
COc1ccc(C2=Nn3c(NN=C4C(=O)N(Cc5ccccc5)c5ccc(Cl)cc54)nnc3SC2)cc1  inhibition (cell growth or viability, SRB; 10 µM): 23%
CC(=O)OC[C@H]1O[C@@H](Sc2sc(C(=O)c3ccc(C)cc3)c(N)c2-c2nc3ccccc3s2)[C@H](OC(C)=O)[C@@H](OC(C)=O)[C@H]1OC(C)=O  growth (SRB; 10 µM, 48 h; baseline: untreated): 57.6%
CC(Cc1ccc(Cl)cc1)=C(c1ccc(Cl)cc1)c1ccc(OCCN(C)C)cc1  GI50 (cell growth or viability): 4.27 µM
COc1cc(CNC(=O)C[C@H](C)CCC=C(C)C)ccc1OCc1cn(-c2ccc(C#N)cc2)nn1  growth percent (SRB; 10 µM, 48 h): 50.9%
CC(=O)OC[C@H]1O[C@@H](Sc2sc(C(=O)c3ccc(Br)cc3)c(N)c2-c2nc3ccccc3s2)[C@H](OC(C)=O)[C@@H](OC(C)=O)[C@@H]1OC(C)=O  growth (SRB; 10 µM, 48 h; baseline: untreated): 73.6%

For quick reference, copied from above:
COc1ccc(C2=Nn3c(NN=C4C(=O)N(Cc5ccccc5)c5ccc(Cl)cc54)nnc3SC2)cc1  inhibition (cell growth or viability, SRB; 10 µM): 23%
